Experimental data pooled from the literature.
Every numbered part comes from another study and shows a few of its results, in no order. Several values in a cell are separate wells, animals, samples, runs or records.
Sequence of UniProt P09769 (whole entry, looked up): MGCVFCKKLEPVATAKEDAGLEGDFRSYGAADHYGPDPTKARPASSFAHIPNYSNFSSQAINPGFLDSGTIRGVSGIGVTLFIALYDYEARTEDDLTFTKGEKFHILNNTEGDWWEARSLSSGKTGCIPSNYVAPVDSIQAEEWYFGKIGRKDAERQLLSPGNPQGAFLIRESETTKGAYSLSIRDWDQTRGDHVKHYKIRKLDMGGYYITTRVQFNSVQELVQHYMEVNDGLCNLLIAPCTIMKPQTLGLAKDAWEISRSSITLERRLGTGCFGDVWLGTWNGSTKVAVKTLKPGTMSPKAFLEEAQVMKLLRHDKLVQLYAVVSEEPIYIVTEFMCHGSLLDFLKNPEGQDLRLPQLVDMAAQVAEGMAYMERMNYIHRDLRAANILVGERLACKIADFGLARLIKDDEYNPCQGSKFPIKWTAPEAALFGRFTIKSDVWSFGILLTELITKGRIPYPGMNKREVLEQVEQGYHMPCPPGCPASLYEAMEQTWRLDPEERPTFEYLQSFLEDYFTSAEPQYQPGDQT
Sequence of UniProt O95747 (whole entry, looked up): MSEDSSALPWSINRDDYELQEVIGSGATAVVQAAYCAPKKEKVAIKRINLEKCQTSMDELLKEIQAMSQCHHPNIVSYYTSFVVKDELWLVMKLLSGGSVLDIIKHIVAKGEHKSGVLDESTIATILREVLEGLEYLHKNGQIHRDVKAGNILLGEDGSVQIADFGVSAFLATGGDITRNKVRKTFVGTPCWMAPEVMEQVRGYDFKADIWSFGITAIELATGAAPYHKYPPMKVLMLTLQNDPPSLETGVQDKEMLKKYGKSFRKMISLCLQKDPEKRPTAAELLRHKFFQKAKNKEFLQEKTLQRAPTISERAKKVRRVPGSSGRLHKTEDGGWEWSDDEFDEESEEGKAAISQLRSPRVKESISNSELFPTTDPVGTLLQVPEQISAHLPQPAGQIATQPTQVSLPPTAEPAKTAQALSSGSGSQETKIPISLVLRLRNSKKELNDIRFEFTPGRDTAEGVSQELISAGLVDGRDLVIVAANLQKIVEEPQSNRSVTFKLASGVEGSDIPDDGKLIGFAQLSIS
Sequence of UniProt Q9H093 (whole entry, looked up): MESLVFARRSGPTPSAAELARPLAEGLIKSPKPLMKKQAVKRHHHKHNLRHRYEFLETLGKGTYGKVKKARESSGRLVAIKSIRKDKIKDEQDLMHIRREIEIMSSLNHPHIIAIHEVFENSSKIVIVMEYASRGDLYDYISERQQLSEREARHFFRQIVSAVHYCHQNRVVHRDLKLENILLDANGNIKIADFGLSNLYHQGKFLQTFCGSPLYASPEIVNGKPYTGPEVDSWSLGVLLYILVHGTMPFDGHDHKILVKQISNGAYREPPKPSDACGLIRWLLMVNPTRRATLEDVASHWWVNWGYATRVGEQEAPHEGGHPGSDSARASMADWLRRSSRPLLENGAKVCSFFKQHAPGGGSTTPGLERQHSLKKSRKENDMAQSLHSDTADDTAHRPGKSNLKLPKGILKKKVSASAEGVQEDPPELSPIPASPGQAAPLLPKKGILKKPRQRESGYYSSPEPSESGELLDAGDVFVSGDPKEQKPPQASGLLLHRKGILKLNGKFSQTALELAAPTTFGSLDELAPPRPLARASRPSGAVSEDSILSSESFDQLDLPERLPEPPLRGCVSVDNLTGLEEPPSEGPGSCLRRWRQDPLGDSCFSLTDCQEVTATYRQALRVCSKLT
Sequence of UniProt Q8N4C8 (whole entry, looked up): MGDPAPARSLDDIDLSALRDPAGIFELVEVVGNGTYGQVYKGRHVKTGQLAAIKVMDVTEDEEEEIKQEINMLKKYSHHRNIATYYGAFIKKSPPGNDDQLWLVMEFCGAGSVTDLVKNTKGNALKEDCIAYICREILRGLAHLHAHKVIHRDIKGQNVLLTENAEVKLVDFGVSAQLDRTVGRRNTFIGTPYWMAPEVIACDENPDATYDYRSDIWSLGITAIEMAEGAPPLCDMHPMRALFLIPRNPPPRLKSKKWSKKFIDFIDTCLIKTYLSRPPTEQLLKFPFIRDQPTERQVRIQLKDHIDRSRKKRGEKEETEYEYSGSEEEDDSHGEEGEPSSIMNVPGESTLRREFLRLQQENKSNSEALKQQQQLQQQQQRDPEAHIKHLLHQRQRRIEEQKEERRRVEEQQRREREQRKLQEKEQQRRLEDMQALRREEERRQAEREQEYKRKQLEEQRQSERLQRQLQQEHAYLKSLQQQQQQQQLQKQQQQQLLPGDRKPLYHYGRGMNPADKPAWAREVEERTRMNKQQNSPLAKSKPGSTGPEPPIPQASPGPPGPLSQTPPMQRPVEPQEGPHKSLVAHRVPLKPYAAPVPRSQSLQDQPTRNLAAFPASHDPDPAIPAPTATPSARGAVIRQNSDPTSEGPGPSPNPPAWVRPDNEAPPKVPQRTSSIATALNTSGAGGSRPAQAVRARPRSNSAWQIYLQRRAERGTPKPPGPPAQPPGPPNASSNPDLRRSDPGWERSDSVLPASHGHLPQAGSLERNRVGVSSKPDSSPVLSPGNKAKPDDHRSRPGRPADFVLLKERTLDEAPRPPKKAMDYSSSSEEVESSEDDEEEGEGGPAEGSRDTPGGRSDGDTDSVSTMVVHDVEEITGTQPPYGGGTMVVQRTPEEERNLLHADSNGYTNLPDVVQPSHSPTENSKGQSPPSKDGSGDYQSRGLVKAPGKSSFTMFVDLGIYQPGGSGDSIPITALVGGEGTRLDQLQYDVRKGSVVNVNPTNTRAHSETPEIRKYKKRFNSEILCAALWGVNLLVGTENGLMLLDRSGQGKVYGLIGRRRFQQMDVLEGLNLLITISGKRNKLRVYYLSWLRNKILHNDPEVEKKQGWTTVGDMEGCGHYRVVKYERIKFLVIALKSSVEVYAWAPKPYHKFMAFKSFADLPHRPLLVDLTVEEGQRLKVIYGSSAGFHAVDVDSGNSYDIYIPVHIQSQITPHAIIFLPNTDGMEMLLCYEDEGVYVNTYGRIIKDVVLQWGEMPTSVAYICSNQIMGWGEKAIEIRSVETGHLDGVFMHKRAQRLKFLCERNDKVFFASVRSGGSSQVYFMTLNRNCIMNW
Sequence of UniProt Q6PHR2 (whole entry, looked up): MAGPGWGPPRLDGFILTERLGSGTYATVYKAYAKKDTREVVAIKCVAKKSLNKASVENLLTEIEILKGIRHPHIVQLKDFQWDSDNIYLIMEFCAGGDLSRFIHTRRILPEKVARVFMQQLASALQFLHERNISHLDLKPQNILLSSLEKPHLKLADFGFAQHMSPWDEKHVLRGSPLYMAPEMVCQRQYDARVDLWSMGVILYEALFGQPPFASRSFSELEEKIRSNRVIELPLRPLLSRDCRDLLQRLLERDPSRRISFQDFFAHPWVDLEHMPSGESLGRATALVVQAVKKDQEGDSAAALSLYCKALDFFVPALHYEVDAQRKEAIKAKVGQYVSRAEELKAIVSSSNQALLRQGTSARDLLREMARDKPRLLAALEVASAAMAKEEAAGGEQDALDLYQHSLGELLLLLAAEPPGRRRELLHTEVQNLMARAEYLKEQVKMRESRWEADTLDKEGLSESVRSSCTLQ
Sequence of UniProt Q9NY57 (whole entry, looked up): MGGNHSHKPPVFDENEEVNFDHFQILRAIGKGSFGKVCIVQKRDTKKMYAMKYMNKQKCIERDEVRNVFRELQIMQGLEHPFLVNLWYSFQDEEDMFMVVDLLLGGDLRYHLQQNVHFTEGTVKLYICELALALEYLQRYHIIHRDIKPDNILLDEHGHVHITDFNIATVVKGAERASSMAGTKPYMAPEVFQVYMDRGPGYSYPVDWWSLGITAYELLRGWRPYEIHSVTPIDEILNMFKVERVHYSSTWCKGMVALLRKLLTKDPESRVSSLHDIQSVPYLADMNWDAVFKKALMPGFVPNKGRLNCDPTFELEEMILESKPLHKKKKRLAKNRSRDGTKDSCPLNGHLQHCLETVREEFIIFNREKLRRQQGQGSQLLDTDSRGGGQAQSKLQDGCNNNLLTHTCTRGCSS

Series 1
SMILES: CCC(=O)N1CCN(c2nc(OC[C@@H]3CCCN3C)nc3c2CCN(c2cccc4cccc(Cl)c24)C3)C[C@@H]1CC#N
Read-out: binding
Action: competitor
Method: NanoBRET
Cells: HEK293
KRAS G12D: GTPase KRas (KRAS, Homo sapiens, UniProt P01116, G12D)
target | tested at | normalized BRET
KRAS G12D | 1.24 µM | 94.7% and 96.4% and 92.9%
GTPase KRas (KRAS, Homo sapiens, UniProt P01116, Q61R) | 3.7 µM | 100% and 84.6% and 105%
KRAS G12D | 11.1 µM | 86.1% and 96.8% and 92.5%
GTPase KRas (KRAS, Homo sapiens, UniProt P01116, G13D) | 1.24 µM | 47.1% and 52.1% and 46.1%
KRAS G12D | 15.2 nM | 102% and 107% and 96.8%
GTPase KRas (KRAS, Homo sapiens, UniProt P01116, Q61L) | 11.1 µM | 27.9% and 30.3% and 29%
KRAS G12D | 45.7 nM | 95.5% and 93.4% and 96%

Series 2
Target: Mitogen-activated protein kinase kinase kinase 9 (MAP3K9, Homo sapiens, UniProt P80192)
Sequence of UniProt P80192 (whole entry, looked up): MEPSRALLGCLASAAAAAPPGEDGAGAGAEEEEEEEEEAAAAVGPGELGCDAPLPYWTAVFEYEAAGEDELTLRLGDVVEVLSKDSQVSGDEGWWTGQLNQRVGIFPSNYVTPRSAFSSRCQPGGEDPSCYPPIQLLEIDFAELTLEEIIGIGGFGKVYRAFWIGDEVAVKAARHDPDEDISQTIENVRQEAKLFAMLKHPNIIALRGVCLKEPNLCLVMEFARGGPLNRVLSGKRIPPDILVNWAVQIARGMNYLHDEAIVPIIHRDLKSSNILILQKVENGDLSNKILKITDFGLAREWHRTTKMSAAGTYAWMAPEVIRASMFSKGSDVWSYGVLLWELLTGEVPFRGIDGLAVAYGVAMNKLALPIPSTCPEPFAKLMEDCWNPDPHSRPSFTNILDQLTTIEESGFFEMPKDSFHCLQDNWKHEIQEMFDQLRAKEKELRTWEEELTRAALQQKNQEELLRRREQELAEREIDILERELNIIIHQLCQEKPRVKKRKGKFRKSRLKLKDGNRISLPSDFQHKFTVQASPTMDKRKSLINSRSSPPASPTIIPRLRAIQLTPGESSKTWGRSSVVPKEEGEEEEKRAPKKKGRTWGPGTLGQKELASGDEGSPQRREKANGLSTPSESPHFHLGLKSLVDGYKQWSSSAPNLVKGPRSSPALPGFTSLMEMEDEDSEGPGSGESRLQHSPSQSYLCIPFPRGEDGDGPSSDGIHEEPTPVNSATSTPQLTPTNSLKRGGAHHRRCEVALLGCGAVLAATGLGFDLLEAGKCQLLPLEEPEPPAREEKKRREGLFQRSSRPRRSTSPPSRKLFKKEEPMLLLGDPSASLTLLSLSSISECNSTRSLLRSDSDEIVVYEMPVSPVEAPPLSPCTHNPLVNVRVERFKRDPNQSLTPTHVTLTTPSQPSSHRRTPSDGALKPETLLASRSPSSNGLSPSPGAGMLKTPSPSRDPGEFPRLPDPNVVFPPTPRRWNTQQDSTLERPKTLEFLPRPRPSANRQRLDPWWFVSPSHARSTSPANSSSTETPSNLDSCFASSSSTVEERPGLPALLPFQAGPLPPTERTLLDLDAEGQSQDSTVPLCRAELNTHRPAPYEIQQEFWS
Read-out: enzyme activity
Action: inhibitor
Tested at: 0.5 µM
Reference: control
SMILES | remaining activity
Cc1nc(-c2ccccc2)c(-c2ccncc2)o1 | 79.4%
COc1cc2ncnc(Nc3ccc(Oc4ccccc4)cc3)c2cc1OC | 57.7%
Cn1c2ccccc2c2c3c(c4c5ccccc5n(CCC#N)c4c21)CNC3=O | 1.49%
N#CC(C#N)=C(N)/C(C#N)=C/c1ccc(O)cc1 | 94.4%
Nc1ncnc2n[nH]c(Nc3ccc(F)cc3)c12 | 100%
Nc1ccc2ncnc(NCCc3ccc(Oc4ccccc4)cc3)c2c1 | 103%
Cc1cccc(-c2[nH]c(C(C)(C)C)nc2-c2ccc3c(c2)OCO3)n1 | 94%
CNC(=O)c1cc(Oc2ccc(NC(=O)Nc3ccc(Cl)c(C(F)(F)F)c3)cc2)ccn1 | 103%
Cn1sc(=O)n(Cc2ccccc2)c1=O | 99.4%
O=C(Nc1cccc(Nc2cc(Nc3cccc(C(F)(F)F)c3)ncn2)c1)C1CC1 | 107%
O=C1NC(=O)C(c2cn(CCCn3ccnc3)c3ccccc23)=C1Nc1ccccc1 | 30.6%
CN(C)c1ccc(C=C2C(=O)Nc3ccccc32)cc1 | 90.2%
O=C(O)c1ccc2c3c1cccc3c(=O)n1c3ccccc3nc21 | 64.4%
COc1ccc(C(=O)Nc2sc3c(c2C(N)=O)CCCC3)cc1OC | 100%
Oc1ccc(-c2nc(-c3ccncc3)c(-c3ccc(F)cc3)[nH]2)cc1 | 53.1%
CC(C)[C@H](CO)Nc1nc(Nc2cc(N)cc(Cl)c2)c2ncn(C(C)C)c2n1 | 7.81%

Series 3
Structure (SMILES): CN1CCN(C(=O)c2ccc(NC(=O)Nc3ccc(N(C)c4ccnc(Nc5ccc(CS(C)(=O)=O)cc5)n4)cc3)cc2)CC1
Tested at: 1 µM
target | read-out | method | remaining binding [%]
MAP4K3 (Homo sapiens, UniProt Q8IVH8) | binding | competition with immobilised ligand | 25
WEE2 (Homo sapiens, UniProt P0C1S8) | binding | competition with immobilised ligand | 99
FGR (Homo sapiens, UniProt P09769) | cell-free assay | competition with immobilised ligand | 57
Receptor-type tyrosine-protein kinase FLT3, autoinhibited (FLT3, Homo sapiens, UniProt P36888) | binding |  | 7.3
CSF1R (Homo sapiens, UniProt P07333) | binding | competition with immobilised ligand | 0
MAPK7 (Homo sapiens, UniProt Q13164) | binding |  | 100
PRKCD (Homo sapiens, UniProt Q05655) | binding |  | 100
STK32B (Homo sapiens, UniProt Q9NY57) | binding |  | 100
ROS1 (Homo sapiens, UniProt P08922) | binding |  | 57

Series 4
Structure (SMILES): NS(=O)(=O)c1cc(NC(=O)C2(c3ccccc3Cl)CC2)ccc1Oc1cccc(Cl)c1
Read-out: cell-free assay
Method: competition with immobilised ligand
Tested at: 1 µM
target | remaining binding
Tyrosine-protein kinase JAK1, JH1 (JAK1, Homo sapiens, UniProt P23458) | 90%
PAK6 (Homo sapiens, UniProt Q9NQU5) | 100%
FGFR3 (Homo sapiens, UniProt P22607, G697C) | 100%
OXSR1 (Homo sapiens, UniProt O95747) | 100%
Tyrosine-protein kinase ABL1, phosphorylated (ABL1, Homo sapiens, UniProt P00519, F317L) | 71%
MARK3 (Homo sapiens, UniProt P27448) | 92%
MINK1 (Homo sapiens, UniProt Q8N4C8) | 86%
Ribosomal protein S6 kinase alpha-1, N-terminal kinase domain (RPS6KA1, Homo sapiens, UniProt Q15418) | 98%
EPHB4 (Homo sapiens, UniProt P54760) | 57%
PAK3 (Homo sapiens, UniProt O75914) | 64%
MAP2K5 (Homo sapiens, UniProt Q13163) | 94%
NUAK2 (Homo sapiens, UniProt Q9H093) | 80%
TGFBR2 (Homo sapiens, UniProt P37173) | 64%
CLK3 (Homo sapiens, UniProt P49761) | 72%
MAST1 (Homo sapiens, UniProt Q9Y2H9) | 100%
Tyrosine-protein kinase ABL1, non-phosphorylated (ABL1, Homo sapiens, UniProt P00519, Q252H) | 58%
ULK3 (Homo sapiens, UniProt Q6PHR2) | 83%
RET (Homo sapiens, UniProt P07949) | 84%
LCK (Homo sapiens, UniProt P06239) | 80%
MAP3K9 (Homo sapiens, UniProt P80192) | 67%

A few entries again (series 4):
target | remaining binding
CLK3 (Homo sapiens, UniProt P49761) | 72%
MAP2K5 (Homo sapiens, UniProt Q13163) | 94%
NUAK2 (Homo sapiens, UniProt Q9H093) | 80%
EPHB4 (Homo sapiens, UniProt P54760) | 57%
Tyrosine-protein kinase ABL1, non-phosphorylated (ABL1, Homo sapiens, UniProt P00519, Q252H) | 58%
MAP3K9 (Homo sapiens, UniProt P80192) | 67%
